Measurements from different studies.
Each numbered part is a random draw from the data of one study; scales do not carry over between parts. Numbers after ± are the reported error.
Chain of UniProt Q9NPI1 (whole entry, unmodified, looked up): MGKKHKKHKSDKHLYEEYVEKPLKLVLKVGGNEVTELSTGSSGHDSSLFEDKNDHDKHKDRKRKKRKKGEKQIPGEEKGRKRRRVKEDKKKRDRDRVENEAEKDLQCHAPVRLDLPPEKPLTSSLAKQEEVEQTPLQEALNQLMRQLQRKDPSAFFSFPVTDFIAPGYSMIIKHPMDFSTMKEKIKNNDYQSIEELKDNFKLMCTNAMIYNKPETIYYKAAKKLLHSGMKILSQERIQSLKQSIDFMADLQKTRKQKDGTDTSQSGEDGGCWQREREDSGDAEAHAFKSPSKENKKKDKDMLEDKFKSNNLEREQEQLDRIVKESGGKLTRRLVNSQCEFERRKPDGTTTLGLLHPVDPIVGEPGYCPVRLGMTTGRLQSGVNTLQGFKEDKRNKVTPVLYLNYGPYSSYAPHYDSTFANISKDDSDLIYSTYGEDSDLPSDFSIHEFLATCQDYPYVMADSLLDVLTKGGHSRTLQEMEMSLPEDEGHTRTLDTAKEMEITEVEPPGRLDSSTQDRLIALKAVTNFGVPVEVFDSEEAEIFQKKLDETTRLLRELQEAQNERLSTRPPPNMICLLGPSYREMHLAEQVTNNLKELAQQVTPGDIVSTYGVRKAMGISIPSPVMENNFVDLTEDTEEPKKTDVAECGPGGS
Chain of UniProt P34914 (whole entry, looked up): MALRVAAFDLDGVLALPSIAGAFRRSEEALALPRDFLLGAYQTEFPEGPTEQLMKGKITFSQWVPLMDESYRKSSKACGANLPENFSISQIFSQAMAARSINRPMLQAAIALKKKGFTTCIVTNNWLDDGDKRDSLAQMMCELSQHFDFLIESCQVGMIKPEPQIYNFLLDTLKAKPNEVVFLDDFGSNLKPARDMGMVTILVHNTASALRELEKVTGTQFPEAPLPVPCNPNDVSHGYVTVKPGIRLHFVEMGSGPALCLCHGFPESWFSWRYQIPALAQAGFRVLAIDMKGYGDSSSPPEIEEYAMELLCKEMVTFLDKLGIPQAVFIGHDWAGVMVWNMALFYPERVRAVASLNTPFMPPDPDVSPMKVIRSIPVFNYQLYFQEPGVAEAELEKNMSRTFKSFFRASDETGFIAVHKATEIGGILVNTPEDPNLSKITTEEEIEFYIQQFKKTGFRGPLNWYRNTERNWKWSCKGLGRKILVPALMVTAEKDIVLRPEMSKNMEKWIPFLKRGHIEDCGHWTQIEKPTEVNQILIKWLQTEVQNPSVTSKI
Chain of UniProt O42275 (whole entry, looked up): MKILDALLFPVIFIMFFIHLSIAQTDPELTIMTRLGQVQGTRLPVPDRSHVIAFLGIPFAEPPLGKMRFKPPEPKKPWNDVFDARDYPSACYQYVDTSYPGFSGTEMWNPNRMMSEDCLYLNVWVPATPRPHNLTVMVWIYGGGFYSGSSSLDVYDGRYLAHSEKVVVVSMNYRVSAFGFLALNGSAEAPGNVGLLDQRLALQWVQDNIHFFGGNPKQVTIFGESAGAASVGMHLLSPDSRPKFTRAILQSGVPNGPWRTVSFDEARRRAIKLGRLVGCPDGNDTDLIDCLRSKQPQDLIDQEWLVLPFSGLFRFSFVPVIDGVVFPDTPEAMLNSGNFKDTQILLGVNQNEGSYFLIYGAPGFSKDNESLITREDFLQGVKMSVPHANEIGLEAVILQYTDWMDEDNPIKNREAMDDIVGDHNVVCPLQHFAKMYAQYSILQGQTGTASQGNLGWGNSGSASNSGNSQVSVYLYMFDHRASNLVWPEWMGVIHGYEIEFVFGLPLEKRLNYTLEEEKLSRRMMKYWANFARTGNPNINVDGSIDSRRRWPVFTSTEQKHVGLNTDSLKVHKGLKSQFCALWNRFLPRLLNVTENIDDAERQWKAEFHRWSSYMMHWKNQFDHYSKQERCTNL
Chain of UniProt P25929 (whole entry, looked up): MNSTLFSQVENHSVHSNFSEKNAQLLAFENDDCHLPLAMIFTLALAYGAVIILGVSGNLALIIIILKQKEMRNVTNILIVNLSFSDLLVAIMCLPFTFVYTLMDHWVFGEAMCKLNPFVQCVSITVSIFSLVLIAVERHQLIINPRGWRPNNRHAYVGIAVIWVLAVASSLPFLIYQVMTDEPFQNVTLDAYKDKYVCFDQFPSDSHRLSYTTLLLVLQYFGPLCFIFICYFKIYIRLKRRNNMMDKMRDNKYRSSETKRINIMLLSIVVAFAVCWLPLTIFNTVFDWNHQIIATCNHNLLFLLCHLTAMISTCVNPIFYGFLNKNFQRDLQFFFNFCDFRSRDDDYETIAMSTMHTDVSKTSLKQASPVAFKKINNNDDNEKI

Series 1
Structure (SMILES): Cc1cc(OCc2nnc(SC3CCCC3)n2-c2cccnc2)ccc1-c1ccc(S(C)(=O)=O)cc1
cell line | GI50 [nM]
MDA-MB-468 | 20.4
A498 | 276
DU-145 | 1430
IGROV-1 | 1320
NCI-H23 | 97.1
HT-29 | 1890
OVCAR-4 | 354

Further values, each from its own experiment
Substance | target or system | test | test system | conditions | how to read | measurement | result
Cc1ccccc1S(=O)(=O)Nc1c(N2CCC(NC(=O)Nc3ccc(OC(F)(F)F)c(F)c3)CC2)c(=O)c1=O | Bifunctional epoxide hydrolase 2 (Ephx2, Mus musculus, UniProt P34914) | – | – | – | – | IC50 | 1890 ± 167 nM
C#Cc1cccc(Nc2ncnc3cc(OCCOC)c(OCCOC)cc23)c1 | PC-3 | MTT | – | 25 µg/mL, RPMI medium with 2% serum | – | viability | 3.83%
O=C(Nc1ccc(-c2cnc3ccccc3c2)cc1)C1CCN(Cc2cccc([N+](=O)[O-])c2)CC1 | Acetylcholinesterase (ache, Electrophorus electricus, UniProt O42275) | – | – | – | – | IC50 | > 10000 nM
cyclic GMP-AMP | Bromodomain-containing protein 4, BD1 (BRD4, Homo sapiens, UniProt O60885) | binding, thermal shift | – | 100 µM, BD1 domain | – | ΔTm | -0.48 ± 0.5 °C
human neuropeptide Y | Neuropeptide Y receptor type 1 (NPY1R, Homo sapiens, UniProt P25929) | agonist, ELISA | SK-N-MC cells | 10 nM, 1 h, 37 °C, together with: forskolin 10 µM | relative to: forskolin-stimulated saline-treated cells | cAMP level | 41.6 ± 6.9%
CC[C@@H]1C(=O)N(C)c2cnc(Nc3ccc(C(=O)NC4CCN(C)CC4)cc3OC)nc2N1C1CCCC1 | Bromodomain-containing protein 7 (BRD7, Homo sapiens, UniProt Q9NPI1) | thermal stabilisation, thermal shift | – | 10 µM | – | ΔTm | 1.84 ± 0.18 °C
N#Cc1ccc(-c2csc(CNC(=O)C34CC(CN(C(=O)COCCF)C3)C4)n2)cc1 | – | – | rat, Sprague Dawley, male, liver microsomes | 0.5 µM | – | CLint | < 3 µL/min/mg

Excerpt of the above (further values, each from its own experiment):
Substance | target or system | test | test system | conditions | how to read | measurement | result
cyclic GMP-AMP | Bromodomain-containing protein 4, BD1 (BRD4, Homo sapiens, UniProt O60885) | binding, thermal shift | – | 100 µM, BD1 domain | – | ΔTm | -0.48 ± 0.5 °C
